Assay results pooled from the literature.
Compare with care: the assays were run in different laboratories. ± marks the error that the study gave.
uncharacterized protein: uncharacterized protein (Solanum lycopersicum, UniProt A0A3Q7EJP1)
Ubiquitin carboxyl-terminal hydrolase 39 ZnF-UBD domain: Ubiquitin carboxyl-terminal hydrolase 39, ZnF-UBD domain (Homo sapiens, UniProt Q53GS9)
USP49 ZnF-UBD domain: Ubiquitin carboxyl-terminal hydrolase 49, ZnF-UBD domain (USP49, Homo sapiens, UniProt Q70CQ1)
Inositol-tetrakisphosphate 1-kinase: Inositol-tetrakisphosphate 1-kinase (Homo sapiens, UniProt Q13572)
CYP2A6: Cytochrome P450 2A6 (CYP2A6, Homo sapiens, UniProt P11509)

SMILES = C[C@H](Cc1ccccc1)Nc1ncnc2c1ncn2[C@@H]1O[C@H](CO)[C@@H](O)[C@H]1O; tested on = adenosine A1 receptor, sheep; assay = competition binding; test system = striatum membranes; setting = low-affinity site, two-site model, with: 0.009 nM [3H]DPCPX; endpoint = Kd; result = 0.12 ± 0.06 µM
SMILES = CCCCC/C=C\C/C=C\CCCCCCCC(=O)O; tested on = uncharacterized protein; assay = binding, tyrosine fluorescence quenching; setting = Stern-Volmer approximation; endpoint = Kd; result = 3.6 ± 0.1 µM
SMILES = CC(=O)N1CCC[C@H]1C(=O)N[C@@H](CCC(N)=O)C(=O)N1CCC[C@H]1C(=O)N[C@H](C(=O)N[C@@H](CC(=O)O)C(=O)N[C@@H](CO)C(=O)N[C@@H](Cc1c[nH]c2ccccc12)C(=O)N[C@H](C(=O)O)C(C)C)C(C)C; tested on = affinity clamp fusion protein; assay = binding, fluorescence titration; setting = 70 min, with translation components; endpoint = Kd; result = 0.125 ± 0.039 µM
SMILES = NC(=O)[C@H]1CCCN1C(=O)CCC(=O)O; tested on = Ubiquitin carboxyl-terminal hydrolase 39 ZnF-UBD domain; endpoint = Kd; result = > 1000 µM
SMILES = CCCCCCCC(=O)OC[C@H](COP(=O)(O)O[C@@H]1[C@H](O)[C@H](O)[C@@H](OP(=O)(O)O)[C@H](OP(=O)(O)O)[C@H]1O)OC(=O)CCCCCCC; tested on = Kv7.2/Kv7.3(EEE) mutant channel; assay = channel opening, activator, model fit of open probability; setting = model 4, K3, E2 E3 fixed to WT; endpoint = Kd; result = 241 µM
SMILES = COC(=O)C[C@@H]1N=C(c2ccc(Cl)cc2)c2c(sc(C(=O)NCCOCCNC(=O)C[C@@H]3N=C(c4ccc(Cl)cc4)c4c(sc(C)c4C)-n4c(C)nnc43)c2C)-n2c(C)nnc21; tested on = Bromodomain-containing protein 3, BD1 (BRD3, Homo sapiens, UniProt Q15059); endpoint = Kd; result = 0.00013 µM
SMILES = NC(=O)c1cc(-n2c(CCC(=O)O)nc3ccccc32)cs1; tested on = USP49 ZnF-UBD domain; endpoint = Kd; result = > 1000 µM
SMILES = CCOc1cc(-c2nncn2C)ccc1Nc1ncc2cc(C)nc(NCC(C)(C)C)c2n1; tested on = Dual specificity protein kinase TTK (TTK, Homo sapiens, UniProt P33981); endpoint = Kd; result = 0.00019 µM
SMILES = COc1ccc(C=C2SC(=O)N(C(C)C(=O)O)C2=O)cc1 (stereo not drawn); tested on = USP49 ZnF-UBD domain; endpoint = Kd; result = > 1000 µM
SMILES = NCCS(=O)(=O)O; tested on = Sodium- and chloride-dependent taurine transporter (SLC6A6, Homo sapiens, UniProt P31641, F58A); assay = microscale thermophoresis; setting = F58A mutant; endpoint = Kd; result = 16.8 ± 4.72 µM
SMILES = O=C(O)CCCc1ccccc1; assay = binding, equilibrium dialysis LC-MS; setting = 5 µM, thermostabilized A2AR-BRIL construct; how to read = baseline: no-protein control, direction not given; endpoint = z-scored log2 fold change; result = 0.0779
SMILES = CCCCCCCC/C=C\CCCCCCCC(=O)O; tested on = uncharacterized protein; assay = binding, tyrosine fluorescence quenching; setting = Stern-Volmer approximation; endpoint = Kd; result = 3.3 ± 0.2 µM
SMILES = O=P(O)(O)O[C@H]1O[C@H](CO)[C@@H](O)[C@H](O)[C@H]1O; assay = binding, equilibrium dialysis LC-MS; setting = 5 µM, thermostabilized A2AR-BRIL construct; how to read = baseline: no-protein control, direction not given; endpoint = z-scored log2 fold change; result = 0.126
SMILES = Nc1ncnc2c1ncn2C1CCCO1 (stereo not drawn); tested on = Inositol-tetrakisphosphate 1-kinase; assay = binding; endpoint = Kd; result = 1.8 ± 0.4 µM
SMILES = O=C(O)CC1Oc2ccccc2NC1=O (stereo not drawn); tested on = Ubiquitin carboxyl-terminal hydrolase 20, ZnF-UBD domain (USP20, Homo sapiens, UniProt Q9Y2K6); endpoint = Kd; result = 271 µM
SMILES = CCC1(c2cnc[nH]2)Cc2ccccc2C1; tested on = CYP2A6; assay = binding; setting = 20 min, pH 7.4, purified protein, 2% DMSO; endpoint = Kd; result = 8.72 µM
SMILES = O=C(O)CCC(=O)Nc1ccccc1; tested on = Ubiquitin carboxyl-terminal hydrolase 39 ZnF-UBD domain; endpoint = Kd; result = > 1000 µM
SMILES = CC[C@H](C)N(CC(=O)N(CC(=O)N(CC(=O)N(CC(=O)N(CC(=O)N(CC(=O)N(CC(N)=O)[C@@H](C)c1ccccc1)[C@@H](C)c1ccccc1)[C@@H](C)CC)[C@@H](C)c1ccccc1)[C@@H](C)c1ccccc1)[C@@H](C)CC)C(=O)CNCCCCN; tested on = Advanced glycosylation end product-specific receptor, soluble extracellular domain (AGER, Homo sapiens, UniProt Q15109); assay = binding; endpoint = Kd; result = 0.078 ± 0.017 µM
SMILES = Cn1ccnc1C(O)c1ccccc1 (stereo not drawn); tested on = CYP2A6; assay = binding; setting = 20 min, pH 7.4, purified protein, 2% DMSO; endpoint = Kd; result = 1220 µM
SMILES = Nc1ncnc2c1ncn2[C@@H]1O[C@H](CO)C[C@H]1O; tested on = Inositol-tetrakisphosphate 1-kinase; assay = binding; endpoint = Kd; result = 2.6 ± 1 µM
SMILES = O=C(O)Cn1cnc2ccccc2c1=O; tested on = USP49 ZnF-UBD domain; endpoint = Kd; result = > 1000 µM
SMILES = C[C@@H](c1nc(-c2ccc(C#N)cc2)cs1)[C@](O)(Cn1cncn1)c1cc(F)ccc1F; tested on = CYP2A6; assay = binding; setting = 20 min, pH 7.4, purified protein, 2% DMSO; endpoint = Kd; result = 195 µM
SMILES = O=C(O)CSc1nnc(NC(=O)COc2ccccc2)s1; tested on = Ubiquitin carboxyl-terminal hydrolase 39 ZnF-UBD domain; endpoint = Kd; result = > 1000 µM
SMILES = OC(Cn1ccnc1)c1ccc(Cl)cc1Cl (stereo not drawn); tested on = CYP2A6; assay = binding; setting = 20 min, pH 7.4, purified protein, 2% DMSO; endpoint = Kd; result = 10.6 µM

A few entries again:
SMILES = OC(Cn1ccnc1)c1ccc(Cl)cc1Cl (stereo not drawn); tested on = CYP2A6; assay = binding; setting = 20 min, pH 7.4, purified protein, 2% DMSO; endpoint = Kd; result = 10.6 µM
SMILES = O=C(O)Cn1cnc2ccccc2c1=O; tested on = USP49 ZnF-UBD domain; endpoint = Kd; result = > 1000 µM
SMILES = COc1ccc(C=C2SC(=O)N(C(C)C(=O)O)C2=O)cc1 (stereo not drawn); tested on = USP49 ZnF-UBD domain; endpoint = Kd; result = > 1000 µM
